Experimental data pooled from the literature.
Each numbered part is a random draw from the data of one study; scales do not carry over between parts. Several values in a cell are separate wells, animals, samples, runs or records.
Sequence of UniProt Q9LIR4 (whole entry, looked up): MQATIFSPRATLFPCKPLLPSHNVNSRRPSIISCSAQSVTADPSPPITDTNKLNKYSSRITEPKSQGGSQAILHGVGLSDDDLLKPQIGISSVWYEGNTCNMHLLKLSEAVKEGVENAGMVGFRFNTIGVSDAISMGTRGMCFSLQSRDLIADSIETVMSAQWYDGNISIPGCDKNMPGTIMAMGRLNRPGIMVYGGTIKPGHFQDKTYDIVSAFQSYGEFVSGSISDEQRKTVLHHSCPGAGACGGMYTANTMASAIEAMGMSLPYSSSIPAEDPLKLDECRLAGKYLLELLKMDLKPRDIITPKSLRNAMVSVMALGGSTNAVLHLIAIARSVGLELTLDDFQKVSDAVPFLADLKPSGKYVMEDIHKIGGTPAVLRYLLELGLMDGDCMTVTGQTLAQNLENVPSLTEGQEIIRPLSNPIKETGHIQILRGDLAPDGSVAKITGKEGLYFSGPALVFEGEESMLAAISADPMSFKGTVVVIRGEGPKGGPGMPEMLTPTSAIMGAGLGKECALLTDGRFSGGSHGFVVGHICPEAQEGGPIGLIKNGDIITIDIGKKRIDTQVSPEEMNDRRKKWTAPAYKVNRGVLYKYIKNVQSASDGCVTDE

Study 1
Structure (SMILES): COc1cc(C(=O)OCCCN2CCCN(CCCOC(=O)c3cc(OC)c(OC)c(OCc4ccc([N+](=O)[O-])cc4)c3)CC2)cc(OC)c1OC
Species: male CD-1 mouse
Route: subcutaneous
Dose: dose not given
| matrix | time | tissue concentration |
| --- | --- | --- |
| trigeminal ganglion | 1.5 h | 159 ng/mL |
| dorsal root ganglia | 8 h | 137 ng/mL |
| trigeminal ganglion | 4.5 h | 129 ng/mL |

Study 2
Cell line: HCC1569
Method: in-cell western
Item: CDK1 phospho-Thr14
Time: 24 h
| SMILES | IC50 [nM] |
| --- | --- |
| Cc1ccc(O)c(C)c1-c1cnc2[nH]c(-c3cnc(N4CCC(CN5CCN(c6ccc7c8c(cccc68)C(=O)N7C6CCC(=O)NC6=O)CC5)CC4)nc3)cc2c1C#N (racemic) | 798 |
| Cc1ccc(O)c(C)c1-c1cnc2[nH]c(-c3cnc(N4CCC(CN5CCN(c6ccc(C(=O)NC7CCC(=O)NC7=O)c(F)c6)CC5)CC4)nc3)cc2c1C#N (racemic) | 164 |
| Cc1ccc(O)c(C)c1-c1cnc2[nH]c(-c3cnc(N4CCC(CN5CCN(c6ccc(N7CCC(=O)NC7=O)cc6F)CC5)CC4)nc3)cc2c1C#N | 132 |

Study 3
SMILES: Cn1cc(-c2cccc(CN3CCC4(CC3)COc3c4ccc4c3CN([C@H]3CCC(=O)NC3=O)C4=O)c2)cn1
| species | matrix | route | dose | notes | Tmax |
| --- | --- | --- | --- | --- | --- |
| cynomolgus monkey | plasma | intravenous | 1 mg/kg | – | 0.08 h |
| cynomolgus monkey | – | oral | 3 mg/kg | – | 2 h |
| rat | plasma | oral | 2.98 mg/kg | group mean | 2.67 h |
| rat | – | oral | 3 mg/kg | – | 4 h and 2 h |
| rat | plasma | intravenous | 1.02 mg/kg | group mean | 0.08 h |
| rat | plasma | intravenous | about 1 mg/kg | – | 0.08 h |
| cynomolgus monkey | – | intravenous | 1 mg/kg | – | 0.08 h |
| cynomolgus monkey | plasma | oral | 3.02 mg/kg | – | 2 h |

Mixed results
| SMILES | target or system | assay | test system | conditions | endpoint | result |
| --- | --- | --- | --- | --- | --- | --- |
| C=CCN1C(=O)C(O)(C(=O)O)Oc2cc(F)ccc21 (centres unmarked) | Arabidopsis thaliana | hypocotyl length | Col-0, seedlings | 12.5 µg/mL | inhibition | 13.1% |
| CCCN1C(=O)C(O)(C(=O)O)Oc2cc(F)ccc21 (centres unmarked) | Dihydroxy-acid dehydratase, chloroplastic (DHAD, Arabidopsis thaliana, UniProt Q9LIR4) | microscale thermophoresis | – | – | Kd | 2370 nM |
| C#CCN1C(=O)C(O)(C(=O)O)Oc2cc(F)ccc21 (centres unmarked) | Arabidopsis thaliana | – | – | foliar spray, 200 µg/mL, 20 days | fresh weight inhibition | 58.9% |

For quick reference, copied from above (study 1):
| matrix | time | tissue concentration |
| --- | --- | --- |
| trigeminal ganglion | 1.5 h | 159 ng/mL |
